Results gathered from unrelated publications.
Compare with care: the assays were run in different laboratories. ± gives the spread as reported.

By UniProt entry, the sequences of proteins in these tests, tags left out. Residues count along the entry.
UniProt A0A1D2IX29, 1-331: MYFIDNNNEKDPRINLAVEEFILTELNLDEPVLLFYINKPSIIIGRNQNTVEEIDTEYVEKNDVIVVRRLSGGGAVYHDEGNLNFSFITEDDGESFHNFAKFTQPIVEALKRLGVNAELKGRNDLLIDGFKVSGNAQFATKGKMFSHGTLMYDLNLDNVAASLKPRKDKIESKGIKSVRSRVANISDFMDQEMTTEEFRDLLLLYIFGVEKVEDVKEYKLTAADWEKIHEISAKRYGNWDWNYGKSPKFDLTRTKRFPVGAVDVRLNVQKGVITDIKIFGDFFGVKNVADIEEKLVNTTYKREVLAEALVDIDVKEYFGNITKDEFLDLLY
UniProt P67660, whole entry K231A, looked up: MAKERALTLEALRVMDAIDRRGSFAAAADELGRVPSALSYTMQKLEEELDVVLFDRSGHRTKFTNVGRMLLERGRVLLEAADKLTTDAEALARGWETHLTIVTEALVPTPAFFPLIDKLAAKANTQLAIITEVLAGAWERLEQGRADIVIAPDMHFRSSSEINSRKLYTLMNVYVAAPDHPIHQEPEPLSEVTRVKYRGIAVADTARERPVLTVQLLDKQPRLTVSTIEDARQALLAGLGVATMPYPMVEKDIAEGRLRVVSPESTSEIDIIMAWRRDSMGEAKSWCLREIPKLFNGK
UniProt Q869C3, whole entry, looked up: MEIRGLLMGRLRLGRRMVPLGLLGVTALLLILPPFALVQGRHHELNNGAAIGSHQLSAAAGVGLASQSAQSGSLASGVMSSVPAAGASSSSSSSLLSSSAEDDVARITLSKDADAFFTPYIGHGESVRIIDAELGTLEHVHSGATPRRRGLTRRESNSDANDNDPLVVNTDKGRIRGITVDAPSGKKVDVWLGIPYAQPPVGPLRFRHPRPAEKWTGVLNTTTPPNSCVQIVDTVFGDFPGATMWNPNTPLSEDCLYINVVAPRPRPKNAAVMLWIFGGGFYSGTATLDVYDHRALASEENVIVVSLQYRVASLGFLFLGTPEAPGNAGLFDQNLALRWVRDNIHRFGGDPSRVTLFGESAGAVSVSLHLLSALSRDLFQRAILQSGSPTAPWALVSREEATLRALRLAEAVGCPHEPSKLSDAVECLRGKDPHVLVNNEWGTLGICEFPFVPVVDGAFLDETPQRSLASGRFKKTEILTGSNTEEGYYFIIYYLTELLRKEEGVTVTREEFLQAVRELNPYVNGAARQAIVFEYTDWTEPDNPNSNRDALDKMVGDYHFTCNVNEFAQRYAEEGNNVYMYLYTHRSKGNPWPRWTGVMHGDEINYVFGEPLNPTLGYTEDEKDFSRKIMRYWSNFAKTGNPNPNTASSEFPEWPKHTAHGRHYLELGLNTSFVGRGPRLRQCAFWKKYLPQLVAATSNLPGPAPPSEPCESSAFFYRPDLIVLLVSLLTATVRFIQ
UniProt P41145, whole entry: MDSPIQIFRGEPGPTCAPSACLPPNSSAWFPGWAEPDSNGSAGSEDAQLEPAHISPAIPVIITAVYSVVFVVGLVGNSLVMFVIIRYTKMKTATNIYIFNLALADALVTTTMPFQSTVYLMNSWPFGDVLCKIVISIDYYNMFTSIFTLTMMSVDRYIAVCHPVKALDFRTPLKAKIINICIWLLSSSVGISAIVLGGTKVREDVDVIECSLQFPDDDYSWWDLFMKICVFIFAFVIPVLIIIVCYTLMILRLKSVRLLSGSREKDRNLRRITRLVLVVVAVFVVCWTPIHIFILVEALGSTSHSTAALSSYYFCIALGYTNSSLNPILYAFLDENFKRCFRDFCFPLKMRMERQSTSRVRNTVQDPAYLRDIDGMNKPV
UniProt Q04912, whole entry, looked up: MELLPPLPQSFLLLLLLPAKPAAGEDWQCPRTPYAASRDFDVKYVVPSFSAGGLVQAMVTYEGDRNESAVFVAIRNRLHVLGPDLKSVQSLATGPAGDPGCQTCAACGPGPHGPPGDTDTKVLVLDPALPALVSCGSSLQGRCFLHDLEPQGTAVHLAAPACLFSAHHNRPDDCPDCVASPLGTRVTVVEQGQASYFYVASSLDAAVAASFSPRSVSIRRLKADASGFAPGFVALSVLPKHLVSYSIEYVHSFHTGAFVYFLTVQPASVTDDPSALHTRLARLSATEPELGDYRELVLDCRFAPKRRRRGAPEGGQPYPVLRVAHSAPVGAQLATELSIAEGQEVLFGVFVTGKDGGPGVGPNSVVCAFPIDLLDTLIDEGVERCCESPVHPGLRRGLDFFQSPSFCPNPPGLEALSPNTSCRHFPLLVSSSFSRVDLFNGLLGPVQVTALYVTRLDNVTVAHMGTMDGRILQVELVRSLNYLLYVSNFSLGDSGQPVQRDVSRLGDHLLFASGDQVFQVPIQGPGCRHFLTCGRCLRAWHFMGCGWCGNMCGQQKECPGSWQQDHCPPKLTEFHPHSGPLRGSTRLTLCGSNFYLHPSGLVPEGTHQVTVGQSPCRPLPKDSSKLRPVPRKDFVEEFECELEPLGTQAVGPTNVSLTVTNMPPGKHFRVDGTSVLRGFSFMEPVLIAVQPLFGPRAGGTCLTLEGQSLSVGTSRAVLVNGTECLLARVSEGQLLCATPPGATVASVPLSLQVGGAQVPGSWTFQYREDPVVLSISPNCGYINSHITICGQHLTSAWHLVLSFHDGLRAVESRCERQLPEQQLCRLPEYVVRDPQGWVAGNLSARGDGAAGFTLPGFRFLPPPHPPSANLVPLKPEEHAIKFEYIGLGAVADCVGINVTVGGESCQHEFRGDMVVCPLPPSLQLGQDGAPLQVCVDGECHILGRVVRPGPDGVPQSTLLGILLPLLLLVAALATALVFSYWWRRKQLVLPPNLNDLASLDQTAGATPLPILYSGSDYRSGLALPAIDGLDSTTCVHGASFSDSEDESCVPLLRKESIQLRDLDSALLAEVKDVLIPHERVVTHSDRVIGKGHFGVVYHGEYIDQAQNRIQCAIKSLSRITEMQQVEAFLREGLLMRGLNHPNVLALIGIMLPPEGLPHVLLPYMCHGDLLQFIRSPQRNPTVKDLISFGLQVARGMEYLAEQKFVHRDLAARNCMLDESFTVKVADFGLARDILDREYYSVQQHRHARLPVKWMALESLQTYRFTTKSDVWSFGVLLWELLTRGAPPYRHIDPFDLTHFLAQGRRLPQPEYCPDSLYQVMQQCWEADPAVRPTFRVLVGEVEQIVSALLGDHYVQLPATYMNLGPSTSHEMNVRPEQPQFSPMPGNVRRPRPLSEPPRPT
UniProt B0JCV9, 1-390: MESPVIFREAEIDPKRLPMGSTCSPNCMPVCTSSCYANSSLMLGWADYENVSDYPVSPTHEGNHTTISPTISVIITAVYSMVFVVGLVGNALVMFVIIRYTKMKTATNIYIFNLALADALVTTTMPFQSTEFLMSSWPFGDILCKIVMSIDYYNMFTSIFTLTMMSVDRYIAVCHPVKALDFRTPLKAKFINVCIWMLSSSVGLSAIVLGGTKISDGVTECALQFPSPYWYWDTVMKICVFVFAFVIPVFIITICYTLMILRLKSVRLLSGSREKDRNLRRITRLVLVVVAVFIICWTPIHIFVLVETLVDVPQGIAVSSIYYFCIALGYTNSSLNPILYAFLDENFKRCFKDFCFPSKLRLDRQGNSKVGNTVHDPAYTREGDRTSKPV
UniProt P0DMM5, whole entry: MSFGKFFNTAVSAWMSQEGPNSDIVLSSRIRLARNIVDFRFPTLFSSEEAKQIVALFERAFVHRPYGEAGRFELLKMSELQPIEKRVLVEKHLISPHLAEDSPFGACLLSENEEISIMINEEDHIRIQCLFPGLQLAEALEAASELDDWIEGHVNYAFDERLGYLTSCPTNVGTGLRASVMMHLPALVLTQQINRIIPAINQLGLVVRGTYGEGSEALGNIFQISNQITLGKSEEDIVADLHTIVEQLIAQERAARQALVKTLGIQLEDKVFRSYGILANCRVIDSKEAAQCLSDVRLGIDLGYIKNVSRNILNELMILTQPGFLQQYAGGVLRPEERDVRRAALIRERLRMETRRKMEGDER
UniProt O42275, 24-633 limits assumed: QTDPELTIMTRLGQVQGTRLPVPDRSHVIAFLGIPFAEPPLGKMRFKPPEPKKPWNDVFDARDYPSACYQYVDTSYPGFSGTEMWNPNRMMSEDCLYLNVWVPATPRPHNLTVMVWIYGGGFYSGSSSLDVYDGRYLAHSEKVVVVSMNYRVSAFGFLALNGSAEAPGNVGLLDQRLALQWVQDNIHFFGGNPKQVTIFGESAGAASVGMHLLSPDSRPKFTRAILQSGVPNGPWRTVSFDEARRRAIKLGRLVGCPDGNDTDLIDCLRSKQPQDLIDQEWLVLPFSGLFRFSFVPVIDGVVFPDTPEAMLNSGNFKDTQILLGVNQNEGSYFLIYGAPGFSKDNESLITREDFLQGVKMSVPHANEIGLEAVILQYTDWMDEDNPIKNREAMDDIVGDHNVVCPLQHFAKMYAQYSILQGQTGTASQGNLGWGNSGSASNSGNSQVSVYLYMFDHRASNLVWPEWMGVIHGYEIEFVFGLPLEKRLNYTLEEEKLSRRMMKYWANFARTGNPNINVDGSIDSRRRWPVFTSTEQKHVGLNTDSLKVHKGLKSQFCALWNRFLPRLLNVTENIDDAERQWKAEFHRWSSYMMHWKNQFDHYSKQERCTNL
UniProt Q0P9J4, 1-485: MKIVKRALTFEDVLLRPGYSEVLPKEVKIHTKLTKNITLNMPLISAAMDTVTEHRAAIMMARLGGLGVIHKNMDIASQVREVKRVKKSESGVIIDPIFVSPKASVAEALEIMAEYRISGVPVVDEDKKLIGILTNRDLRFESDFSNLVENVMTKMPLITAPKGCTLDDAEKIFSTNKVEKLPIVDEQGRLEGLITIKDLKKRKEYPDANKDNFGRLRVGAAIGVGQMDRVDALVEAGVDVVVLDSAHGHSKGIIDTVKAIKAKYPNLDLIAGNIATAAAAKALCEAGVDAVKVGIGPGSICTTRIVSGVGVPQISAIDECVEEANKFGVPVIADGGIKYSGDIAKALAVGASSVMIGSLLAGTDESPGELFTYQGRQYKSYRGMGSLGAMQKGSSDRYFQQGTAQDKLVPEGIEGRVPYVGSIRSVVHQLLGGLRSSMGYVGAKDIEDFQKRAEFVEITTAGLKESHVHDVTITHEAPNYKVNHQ
UniProt P07550, whole entry: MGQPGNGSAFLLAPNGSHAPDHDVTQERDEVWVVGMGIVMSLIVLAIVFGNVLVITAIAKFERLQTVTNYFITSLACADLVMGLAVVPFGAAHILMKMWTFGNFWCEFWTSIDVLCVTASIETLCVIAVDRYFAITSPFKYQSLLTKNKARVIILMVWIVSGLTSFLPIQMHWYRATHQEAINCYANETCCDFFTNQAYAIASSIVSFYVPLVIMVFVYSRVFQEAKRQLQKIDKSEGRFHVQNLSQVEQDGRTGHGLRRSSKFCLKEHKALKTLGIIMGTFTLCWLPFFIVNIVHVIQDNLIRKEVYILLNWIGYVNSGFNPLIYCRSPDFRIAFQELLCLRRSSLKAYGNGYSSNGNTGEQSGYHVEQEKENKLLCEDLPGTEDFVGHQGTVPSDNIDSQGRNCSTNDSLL
UniProt A0A0A1EQY0, 1-364: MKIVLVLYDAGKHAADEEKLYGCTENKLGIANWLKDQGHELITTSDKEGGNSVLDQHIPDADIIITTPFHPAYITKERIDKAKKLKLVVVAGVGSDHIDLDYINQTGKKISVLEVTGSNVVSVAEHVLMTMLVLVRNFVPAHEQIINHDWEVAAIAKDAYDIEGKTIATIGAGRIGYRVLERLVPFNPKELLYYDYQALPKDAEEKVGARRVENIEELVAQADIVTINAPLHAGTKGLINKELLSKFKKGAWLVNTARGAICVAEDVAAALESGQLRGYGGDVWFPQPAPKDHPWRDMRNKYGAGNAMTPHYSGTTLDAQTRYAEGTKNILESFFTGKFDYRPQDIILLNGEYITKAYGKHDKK
UniProt O25069, 1-549: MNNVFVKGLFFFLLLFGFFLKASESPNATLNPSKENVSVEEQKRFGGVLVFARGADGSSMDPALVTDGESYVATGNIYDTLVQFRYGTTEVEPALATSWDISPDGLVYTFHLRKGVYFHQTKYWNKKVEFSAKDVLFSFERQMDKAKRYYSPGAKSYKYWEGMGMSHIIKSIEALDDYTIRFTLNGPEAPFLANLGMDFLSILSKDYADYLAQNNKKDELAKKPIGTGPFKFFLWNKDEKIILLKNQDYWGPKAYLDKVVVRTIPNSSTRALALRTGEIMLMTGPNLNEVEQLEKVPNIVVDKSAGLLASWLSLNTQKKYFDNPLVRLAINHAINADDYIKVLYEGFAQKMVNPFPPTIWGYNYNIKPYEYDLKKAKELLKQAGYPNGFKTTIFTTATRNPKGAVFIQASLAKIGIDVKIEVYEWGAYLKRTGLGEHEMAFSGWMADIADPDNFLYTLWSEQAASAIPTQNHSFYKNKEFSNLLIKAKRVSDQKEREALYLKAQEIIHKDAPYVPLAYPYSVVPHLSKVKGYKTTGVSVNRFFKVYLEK

With `C[As+](C)(C)CCO` the Kd was 1300 ± 70 µM (betP (Corynebacterium glutamicum, UniProt P54582, G153D); binding, tryptophan fluorescence titration; Corynebacterium glutamicum, proteoliposomes; pH 7.5, first binding phase, together with: 100 mM NaCl).
With `O=C(O)CCCC[C@@H]1CCSS1` the Kd was 1.9 µM (Lipoate-protein ligase A1 (Listeria monocytogenes, UniProt A0A1D2IX29); isothermal titration calorimetry).
For `Cc1cc(O)ccc1O`, the Kd was 28500 ± 5400 µM (Probable HTH-type transcriptional regulator YhaJ, effector-binding domain (yhaJ, Escherichia coli, UniProt P67660, K231A); microscale thermophoresis; pH 7.5).
With `CNC(=O)Oc1cccc2ccccc12` the Kd was 4.7 ± 1.63 µM (Ace (Anopheles gambiae, UniProt Q869C3); enzyme inhibition, inhibitor; together with: acetylthiocholine 600 µM).
The Kd of `[3H]diprenorphine` is reported as 0.00015 ± 1e-05 µM (OPRK1 (Homo sapiens, UniProt P41145); radioligand, saturation binding; N2a cell membranes; 1 h, pH 7.4, room temperature, together with: [3H]diprenorphine).
`CC#C/C(=N\OC[C@H]1COCCN1)c1ccc2ncnc(Nc3ccc(OCc4cccc(F)c4)c(Cl)c3)c2c1` gave an inhibition of 19.5% (MST1R (Homo sapiens, UniProt Q04912); kinase activity; 10 µM).
`CO[C@]12CC[C@@]3(C[C@@H]1C(C)(C)O)[C@H]1Cc4ccc(O)c5c4[C@@]3(CCN1CC1CC1)[C@H]2O5` has a Kd of 0.0012 ± 0.0003 µM (Kappa-type opioid receptor (Lithobates pipiens, UniProt B0JCV9); radioligand saturation binding; HEK-293T transfected; frog kappa opioid receptor).
For `N=C(NCCC[C@H](N)C(=O)O)NP(=O)(O)O`, the Kd was 850 ± 400 µM (Protein-arginine kinase (mcsB, Geobacillus stearothermophilus, UniProt P0DMM5); SPR).
For `CNC(=O)CCCCC1CCSS1` (stereo not drawn), the Kd was 38 µM (Lipoate--protein ligase 1 (LipL1, Plasmodium falciparum, UniProt Q8IEG9); isothermal titration calorimetry).
For `COc1cc2oc3ccc(O)cc3c(=O)c2c(OC)c1OC`, the Kd was 87.7 µM (ache (Electrophorus electricus, UniProt O42275); surface plasmon resonance; 25 °C).
With `C[C@@H](Oc1cc[n+]([O-])c2ccccc12)c1cn(-c2ccc(Cl)cc2)nn1` the Kd was 0.2 ± 0.018 µM (guaB (Campylobacter jejuni, UniProt Q0P9J4); binding, biolayer interferometry; 25 °C, together with: IMP 1 mM, NAD+).
With `CCCN1CCN(c2ccc3c(c2)C2CC3CCN2C(=O)OCc2ccccc2)CC1` (stereo not drawn) the Ki was over 10 µM (ADRB2 (Homo sapiens, UniProt P07550); binding, radioligand binding).
`neutrophil inhibitory factor` gave a Kd of 0.02 µM (ITGAM (Homo sapiens, UniProt P11215); binding, solid-phase binding).
Under “log2 fold change”, `CCN1CCN(Cc2ccc(NC(=O)c3ccc(C)c(/C=C/c4cnc5[nH]ccc5c4OC)c3)cc2C(F)(F)F)CC1` is recorded as -1.2 (ETV6-FGFR3 fusion; kinase-CDC37 interaction, inhibitor; human cells; 5 µM; reference: vehicle).
`Cn1cc([N+](=O)[O-])nc1COc1ccc2nc3ccc(=O)cc-3oc2c1` gave an MIC90 of over 256 µM (Mycobacterium tuberculosis; mc2 6206 PA-824-resistant ddn mutant; 7 days).
The Kd of `O=[N+]([O-])C1=CCCCC1` is reported as 6400 ± 700 µM (onr (Enterobacter cloacae, UniProt P71278); stopped-flow; oxidative half-reaction).
`[N-]=[N+]=[N-]` gave a Kd of 0.043 ± 0.005 µM (FDH ([Candida] boidinii, UniProt A0A0A1EQY0); binding, isothermal titration calorimetry; Candida boidinii; together with: NAD+).
`C[C@H](NC(=O)[C@H](CO)NC(=O)[C@@H](NC(=O)[C@@H](N)CO)[C@@H](C)O)C(=O)O` has a Kd of 34 ± 5 µM (Dipeptide-binding protein DppA (Helicobacter pylori, UniProt O25069); thermal shift; at Tm, zero heat capacity model).
